Published values pooled from the literature.
Protocols differ between the studies behind these lines. ± marks the error that the study gave.
Cell line: A2780

For `CC(C)c1cccc(C(C)C)c1N=[C](NCc1ccc(N)cc1)[AuH][Cl]`, the IC50 was 3600 nM (cell growth or viability).
`CN(C)C(=O)c1ccc(COC(=O)N[c-]2cccc2)cc1.[Fe+2].c1cc[cH-]c1` gave an IC50 of 46100 nM (cell growth or viability, MTT; 48 h).
For `Cc1cc(C)c([N+]#[C][Pd-]([Cl])([Cl])=[C](Nc2ccc(CN[C](Nc3c(C(C)C)cccc3C(C)C)=[Au][Cl])cc2)Nc2c(C)cc(C)cc2C)c(C)c1`, the IC50 was 30000 nM (cell growth or viability).
With `COc1ccc(COC[C@](O)(CNCc2ccccc2)[C@@H]2CC[C@@H](C)C[C@H]2OCc2ccc(OC)cc2)cc1` the IC50 was 930 nM (cell growth or viability, MTT; 72 h).
For `COc1cc2c(cc1OCCCOc1no[n+]([O-])c1S(=O)(=O)c1ccccc1)CCC1C2CCC2(C)C(O)CCC12` (centres unmarked), the IC50 was 104 nM (cell growth or viability, MTT; 48 h).
`[Cl][Pd-2]1([Cl])[N+](=P(c2ccccc2)(c2ccccc2)C2C=CC=C2)Cc2cccc[n+]21.[Cl][Pd-2]1([Cl])[N+](=P(c2ccccc2)(c2ccccc2)C2C=CC=C2)Cc2cccc[n+]21.[Fe+2]` has an IC50 of 2000 nM (cell growth or viability, MTT; 74 h).
For `Oc1ccc(Br)cc1C=NNC(=S)Nc1ccccc1`, the IC50 was 600 nM (cell growth or viability, MTT; 72 h).
`C=C1C(=O)C23CCC4C(C)(C)CCCC4(C)C2C(O)CC1C3` (single isomer, unassigned) has an IC50 of 900 nM (cell growth or viability, MTT).
`C[C@@H]1CC[C@@H]([C@@](O)(CNCc2cccc(F)c2)COCc2ccccc2)[C@H](OCc2ccccc2)C1` has an IC50 of 910 nM (cell growth or viability, MTT; 72 h).
`C=C1C(=O)[C@@]23CC[C@@H]4[C@](C)(COC(C)=O)CCC[C@@]4(CO)[C@@H]2[C@@H](O)C[C@@H]1C3` gave an IC50 of 19500 nM (cell growth or viability, MTT).
With `Oc1ccccc1-c1nn(-c2ccccc2)[n+](-c2ccccc2)n1` the IC50 was 74000 nM (cell growth or viability, resazurin; 72 h).
`COc1cccc(CNC[C@@](O)(COCc2ccccc2)[C@@H]2CC[C@@H](C)C[C@H]2OCc2ccccc2)c1` has an IC50 of 1400 nM (cell growth or viability, MTT; 72 h).
For `CC(C)=CCC1=C([O-])C(=O)c2ccccc2C1=O.CC(C)=CCC1=C([O-])C(=O)c2ccccc2C1=O.[Cu+2].c1ccc(-c2ccccn2)nc1`, the IC50 was 1300 ± 600 nM (cell viability, MTT; 72 h).
`CN(C)C(=S)N(C)N=Cc1ccccc1SSc1ccccc1C=NN(C)C(=S)N(C)C` has an IC50 of 140 nM (cell growth or viability, MTT; 72 h).
`CC(C)c1cccc(C(C)C)c1-n1c(Cl)c(Cl)n(-c2c(C(C)C)cccc2C(C)C)c1=[Se].[Cl][Au]` gave an IC50 of 400 nM (cell growth or viability, MTT; 72 h).
For `COc1ccccc1CNC[C@@](O)(COCc1ccccc1)[C@@H]1CC[C@@H](C)C[C@H]1OCc1ccccc1`, the IC50 was 2000 nM (cell growth or viability, MTT; 72 h).
The IC50 of `CC(C)c1cccc(C(C)C)c1N1CCN(c2c(C(C)C)cccc2C(C)C)C1=[Se].[Cl][Au]` is reported as 5700 nM (cell growth or viability; 72 h, 3D culture).
`c1ccc(-c2nn(-c3ccccn3)[n+](-c3ccccc3)n2)cc1` has an IC50 of 16000 nM (cell growth or viability, resazurin; 72 h).
`Cc1cc(C)c([N+]#[C][Pt-2]([Cl])([Cl])[C]#[N+]c2c(C)cc(C)cc2C)c(C)c1` gave an IC50 of > 100000 nM (cell growth or viability).
For `CC(C)c1cccc(C(C)C)c1-n1ccn(-c2c(C(C)C)cccc2C(C)C)c1=[Se].[Cl][Au]`, the IC50 was 600 nM (cell growth or viability, MTT; 72 h).
For `Cc1cc(C)c([N+]#[C][Pt-]([Cl])([Cl])=[C](Nc2ccc(CN[C](Nc3c(C(C)C)cccc3C(C)C)=[Au][Cl])cc2)Nc2c(C)cc(C)cc2C)c(C)c1`, the IC50 was > 100000 nM (cell growth or viability).
`C[N+]1(C)CC[NH2+][Pt-2]1([OH])([Cl])([Cl])[O]C(=O)CCC(=O)OCCOC(=O)CCC(=O)[O][Pt-2]1([OH])([Cl])([Cl])[NH2+]CC[N+]1(C)C` gave an IC50 of 10000 ± 2000 nM (cell viability, EZ4U; 96 h).
`CC(C)c1cccc(C(C)C)c1N=[C](NCc1cccc(N)c1)[AuH][Cl]` gave an IC50 of 2800 nM (cell growth or viability).
`[Fe+2].c1cc[cH-]c1.c1ccc(P(=NCc2ccccn2)(c2ccccc2)[c-]2cccc2)cc1` has an IC50 of 36700 nM (cell growth or viability, MTT; 74 h).
`C[C@@H]1CC[C@@H]([C@](O)(CNCc2ccc(F)cc2)COCc2ccccc2)[C@H](OCc2ccccc2)C1` gave an IC50 of 11900 nM (cell growth or viability, MTT; 72 h).
`Cc1cc(C)c([N+]#[C][Pd-]([Cl])([Cl])=[C](Nc2cccc(CN[C](Nc3c(C(C)C)cccc3C(C)C)=[Au][Cl])c2)Nc2c(C)cc(C)cc2C)c(C)c1` has an IC50 of 12000 nM (cell growth or viability).
`CC(C)=CCC1=C([O-])C(=O)c2ccccc2C1=O.CC(C)=CCC1=C([O-])C(=O)c2ccccc2C1=O.[Cu+2].c1ccc(-c2ccnc3c2ccc2c(-c4ccccc4)ccnc23)cc1` gave an IC50 of 330 ± 10 nM (cell viability, MTT; 72 h).
`CC(C)c1cccc(C(C)C)c1[N+]#[C][Pd-]([Cl])([Cl])=[C](Nc1ccc(CN[C](NC(C)(C)C)=[Au][Cl])cc1)Nc1c(C(C)C)cccc1C(C)C` has an IC50 of > 100000 nM (cell growth or viability).
The IC50 of `C=C1C(=O)[C@@]23CC[C@@H]4C(C)(C)CCC[C@@]4(COC(C)=O)[C@@H]2[C@@H](O)C[C@@H]1C3` (single isomer, unassigned) is reported as 2600 nM (cell growth or viability, MTT).
For `Cc1c(C)n(-c2c(C(C)C)cccc2C(C)C)c(=[Se])n1-c1c(C(C)C)cccc1C(C)C.[Cl][Ag]`, the IC50 was 18100 nM (cell growth or viability; 72 h, 3D culture).
With `Cc1cc(C)c(N=[C](NCc2ccc(N)cc2)[AuH][Cl])c(C)c1` the IC50 was 1900 nM (cell growth or viability).
For `CC1(C)OB(c2ccc(COC(=O)N[c-]3cccc3)cc2)OC1(C)C.[Fe+2].c1cc[cH-]c1`, the IC50 was 23900 nM (cell growth or viability, MTT; 48 h).

A few entries again:
`Cc1cc(C)c([N+]#[C][Pd-]([Cl])([Cl])=[C](Nc2cccc(CN[C](Nc3c(C(C)C)cccc3C(C)C)=[Au][Cl])c2)Nc2c(C)cc(C)cc2C)c(C)c1` has an IC50 of 12000 nM (cell growth or viability).
`CC(C)=CCC1=C([O-])C(=O)c2ccccc2C1=O.CC(C)=CCC1=C([O-])C(=O)c2ccccc2C1=O.[Cu+2].c1ccc(-c2ccnc3c2ccc2c(-c4ccccc4)ccnc23)cc1` gave an IC50 of 330 ± 10 nM (cell viability, MTT; 72 h).
`CC(C)c1cccc(C(C)C)c1[N+]#[C][Pd-]([Cl])([Cl])=[C](Nc1ccc(CN[C](NC(C)(C)C)=[Au][Cl])cc1)Nc1c(C(C)C)cccc1C(C)C` has an IC50 of > 100000 nM (cell growth or viability).
The IC50 of `C=C1C(=O)[C@@]23CC[C@@H]4C(C)(C)CCC[C@@]4(COC(C)=O)[C@@H]2[C@@H](O)C[C@@H]1C3` (single isomer, unassigned) is reported as 2600 nM (cell growth or viability, MTT).
